Experimental data collected from several papers.
Values joined by “and” are separate records of one study, mostly repeats; a detail may differ. Numbers after ± are the reported error.
UniProt P16234, sequence (whole entry, looked up): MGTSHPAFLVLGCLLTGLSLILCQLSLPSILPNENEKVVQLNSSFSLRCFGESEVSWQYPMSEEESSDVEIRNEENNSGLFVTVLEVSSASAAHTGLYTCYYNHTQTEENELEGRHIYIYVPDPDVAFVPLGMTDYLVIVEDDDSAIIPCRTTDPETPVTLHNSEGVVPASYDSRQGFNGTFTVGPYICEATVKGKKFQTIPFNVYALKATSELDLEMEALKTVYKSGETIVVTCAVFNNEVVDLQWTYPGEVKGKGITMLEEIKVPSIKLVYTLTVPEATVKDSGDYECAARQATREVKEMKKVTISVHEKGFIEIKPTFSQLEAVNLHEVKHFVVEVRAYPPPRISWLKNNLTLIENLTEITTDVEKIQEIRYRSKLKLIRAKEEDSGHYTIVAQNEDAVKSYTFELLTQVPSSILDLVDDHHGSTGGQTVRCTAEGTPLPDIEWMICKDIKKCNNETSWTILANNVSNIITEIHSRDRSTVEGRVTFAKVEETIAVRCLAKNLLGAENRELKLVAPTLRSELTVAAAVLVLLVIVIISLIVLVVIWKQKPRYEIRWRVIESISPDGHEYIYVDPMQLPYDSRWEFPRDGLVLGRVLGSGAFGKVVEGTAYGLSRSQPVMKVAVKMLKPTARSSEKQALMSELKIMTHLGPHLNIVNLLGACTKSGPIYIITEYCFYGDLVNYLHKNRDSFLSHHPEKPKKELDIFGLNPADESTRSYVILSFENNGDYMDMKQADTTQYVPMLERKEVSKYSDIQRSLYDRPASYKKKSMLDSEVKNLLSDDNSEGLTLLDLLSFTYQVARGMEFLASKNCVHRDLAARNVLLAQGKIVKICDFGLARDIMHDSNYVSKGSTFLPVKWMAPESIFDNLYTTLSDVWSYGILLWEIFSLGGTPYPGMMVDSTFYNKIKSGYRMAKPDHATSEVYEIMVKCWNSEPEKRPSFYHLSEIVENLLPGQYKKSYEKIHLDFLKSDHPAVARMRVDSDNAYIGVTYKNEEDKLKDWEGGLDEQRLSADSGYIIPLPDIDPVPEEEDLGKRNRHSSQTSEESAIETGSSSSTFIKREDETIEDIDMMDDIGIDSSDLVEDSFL
UniProt O00238, sequence (whole entry, looked up): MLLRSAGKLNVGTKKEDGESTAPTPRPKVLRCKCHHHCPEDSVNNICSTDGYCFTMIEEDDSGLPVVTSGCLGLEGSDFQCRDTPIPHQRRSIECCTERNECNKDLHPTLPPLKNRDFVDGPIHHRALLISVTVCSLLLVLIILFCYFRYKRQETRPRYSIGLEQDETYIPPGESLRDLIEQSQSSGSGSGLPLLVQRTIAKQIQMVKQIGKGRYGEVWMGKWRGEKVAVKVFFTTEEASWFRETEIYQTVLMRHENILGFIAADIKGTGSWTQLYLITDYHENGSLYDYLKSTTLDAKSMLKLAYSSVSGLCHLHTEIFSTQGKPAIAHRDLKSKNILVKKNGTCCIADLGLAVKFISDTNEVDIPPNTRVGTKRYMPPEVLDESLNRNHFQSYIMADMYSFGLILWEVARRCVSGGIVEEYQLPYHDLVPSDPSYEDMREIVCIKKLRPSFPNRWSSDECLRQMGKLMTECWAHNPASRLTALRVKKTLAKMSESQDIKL
UniProt P42336, sequence (whole entry, unmodified, looked up): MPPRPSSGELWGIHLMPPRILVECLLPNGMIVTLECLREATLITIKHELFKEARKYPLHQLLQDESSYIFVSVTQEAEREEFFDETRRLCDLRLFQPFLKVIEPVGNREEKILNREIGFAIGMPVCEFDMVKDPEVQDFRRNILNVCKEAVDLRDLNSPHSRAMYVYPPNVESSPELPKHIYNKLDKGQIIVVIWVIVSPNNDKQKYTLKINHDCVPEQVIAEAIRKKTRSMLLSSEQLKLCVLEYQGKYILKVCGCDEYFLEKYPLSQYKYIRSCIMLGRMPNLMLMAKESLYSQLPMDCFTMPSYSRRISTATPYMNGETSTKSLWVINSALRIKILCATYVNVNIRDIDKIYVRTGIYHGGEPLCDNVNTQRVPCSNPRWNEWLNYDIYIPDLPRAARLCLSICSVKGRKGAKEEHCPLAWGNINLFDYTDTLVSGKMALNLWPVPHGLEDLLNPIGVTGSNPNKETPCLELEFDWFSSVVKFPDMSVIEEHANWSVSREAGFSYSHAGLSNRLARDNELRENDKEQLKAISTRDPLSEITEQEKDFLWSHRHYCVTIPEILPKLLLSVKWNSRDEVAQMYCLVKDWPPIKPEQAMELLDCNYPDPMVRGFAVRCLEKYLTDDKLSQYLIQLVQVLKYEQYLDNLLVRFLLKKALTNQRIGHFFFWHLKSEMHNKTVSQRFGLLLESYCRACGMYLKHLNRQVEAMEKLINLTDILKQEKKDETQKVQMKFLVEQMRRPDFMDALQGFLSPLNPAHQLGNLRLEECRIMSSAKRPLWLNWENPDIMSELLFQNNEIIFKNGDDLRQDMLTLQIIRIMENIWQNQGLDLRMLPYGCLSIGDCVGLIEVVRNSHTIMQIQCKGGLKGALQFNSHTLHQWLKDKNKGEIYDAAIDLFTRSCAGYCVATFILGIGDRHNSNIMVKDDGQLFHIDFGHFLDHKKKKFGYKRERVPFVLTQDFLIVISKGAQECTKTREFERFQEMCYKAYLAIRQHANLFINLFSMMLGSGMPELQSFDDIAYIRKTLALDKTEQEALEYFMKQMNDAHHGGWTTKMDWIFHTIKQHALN
UniProt Q9BY21, sequence (whole entry, looked up): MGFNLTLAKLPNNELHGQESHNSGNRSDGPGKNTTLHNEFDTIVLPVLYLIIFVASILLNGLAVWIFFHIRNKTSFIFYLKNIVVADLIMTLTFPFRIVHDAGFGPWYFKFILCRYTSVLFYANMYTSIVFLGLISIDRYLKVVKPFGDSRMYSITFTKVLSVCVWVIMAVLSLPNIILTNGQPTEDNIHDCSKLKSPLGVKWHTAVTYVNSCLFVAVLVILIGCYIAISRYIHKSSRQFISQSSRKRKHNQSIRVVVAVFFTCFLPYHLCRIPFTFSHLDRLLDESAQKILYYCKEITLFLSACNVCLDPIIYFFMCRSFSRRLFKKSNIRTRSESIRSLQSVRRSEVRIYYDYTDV
UniProt Q14994, sequence (whole entry, looked up): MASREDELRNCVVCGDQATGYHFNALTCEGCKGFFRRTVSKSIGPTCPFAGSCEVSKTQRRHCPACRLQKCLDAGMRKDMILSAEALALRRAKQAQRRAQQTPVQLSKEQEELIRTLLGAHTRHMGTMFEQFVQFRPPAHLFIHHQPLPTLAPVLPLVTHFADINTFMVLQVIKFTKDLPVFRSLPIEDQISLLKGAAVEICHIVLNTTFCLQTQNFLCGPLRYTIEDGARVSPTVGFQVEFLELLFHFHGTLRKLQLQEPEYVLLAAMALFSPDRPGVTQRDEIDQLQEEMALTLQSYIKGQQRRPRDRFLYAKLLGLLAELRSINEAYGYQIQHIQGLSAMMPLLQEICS
UniProt P62136, sequence (whole entry, unmodified, looked up): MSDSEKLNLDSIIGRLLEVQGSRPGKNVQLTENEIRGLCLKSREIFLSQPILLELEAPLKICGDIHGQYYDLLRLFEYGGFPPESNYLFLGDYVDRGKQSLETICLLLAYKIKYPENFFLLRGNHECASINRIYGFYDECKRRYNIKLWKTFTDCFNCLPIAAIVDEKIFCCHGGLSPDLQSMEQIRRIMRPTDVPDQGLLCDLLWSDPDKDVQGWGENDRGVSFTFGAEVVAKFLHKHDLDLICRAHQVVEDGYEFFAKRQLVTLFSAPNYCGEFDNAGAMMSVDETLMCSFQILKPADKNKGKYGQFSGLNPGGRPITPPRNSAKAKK
UniProt Q8R146, sequence (whole entry, looked up): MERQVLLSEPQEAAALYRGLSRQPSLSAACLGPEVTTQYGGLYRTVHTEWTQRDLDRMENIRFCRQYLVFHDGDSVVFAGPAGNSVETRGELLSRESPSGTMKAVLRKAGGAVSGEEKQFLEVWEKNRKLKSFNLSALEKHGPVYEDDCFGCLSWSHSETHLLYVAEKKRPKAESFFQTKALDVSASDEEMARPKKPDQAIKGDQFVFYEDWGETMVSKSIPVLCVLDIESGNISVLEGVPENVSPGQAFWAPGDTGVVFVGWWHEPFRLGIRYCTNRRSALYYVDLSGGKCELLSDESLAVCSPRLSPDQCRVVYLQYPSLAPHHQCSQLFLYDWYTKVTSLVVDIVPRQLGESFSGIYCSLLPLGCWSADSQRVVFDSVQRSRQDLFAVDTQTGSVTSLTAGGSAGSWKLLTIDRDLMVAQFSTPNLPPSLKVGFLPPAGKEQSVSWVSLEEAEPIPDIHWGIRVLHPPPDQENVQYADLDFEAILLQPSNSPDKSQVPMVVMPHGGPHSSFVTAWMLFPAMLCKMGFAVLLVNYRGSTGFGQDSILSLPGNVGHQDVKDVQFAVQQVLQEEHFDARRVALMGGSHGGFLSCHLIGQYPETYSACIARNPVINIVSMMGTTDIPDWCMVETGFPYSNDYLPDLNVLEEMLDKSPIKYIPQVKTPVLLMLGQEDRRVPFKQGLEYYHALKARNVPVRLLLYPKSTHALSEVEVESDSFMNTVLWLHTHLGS
UniProt P19099, sequence (whole entry, unmodified, looked up): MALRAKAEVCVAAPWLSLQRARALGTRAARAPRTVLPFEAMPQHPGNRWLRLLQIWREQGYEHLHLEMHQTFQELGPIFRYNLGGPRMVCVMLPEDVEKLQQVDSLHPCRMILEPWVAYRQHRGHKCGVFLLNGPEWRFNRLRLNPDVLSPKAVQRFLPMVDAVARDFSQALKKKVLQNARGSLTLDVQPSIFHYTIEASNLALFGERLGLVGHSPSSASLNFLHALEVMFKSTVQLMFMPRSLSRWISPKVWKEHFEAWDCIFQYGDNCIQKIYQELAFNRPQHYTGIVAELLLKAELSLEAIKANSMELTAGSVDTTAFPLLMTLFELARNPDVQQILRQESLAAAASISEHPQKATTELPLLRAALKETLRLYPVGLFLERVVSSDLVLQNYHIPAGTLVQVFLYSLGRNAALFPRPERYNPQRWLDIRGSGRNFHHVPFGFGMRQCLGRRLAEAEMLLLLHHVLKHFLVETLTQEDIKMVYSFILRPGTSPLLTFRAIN

CC1(C)[C@H](C(=O)O[C@H](C#N)c2cccc(Oc3ccccc3)c2)[C@@H]1C=C(Br)Br — remaining activity (uncharacterized protein (Anopheles coluzzii, UniProt A0A6E8VQK1); enzyme activity, inhibitor; Sf9 cell homogenate; 0.2294 µM, 0.1667 h, with: α-naphthyl acetate substrate; baseline: no inhibitor): 98.6%
O=C(Nc1cccnn1)N1CCC(=Cc2cccc(Oc3ccc(C(F)(F)F)cn3)c2)CC1 — inhibition (Amine oxidase [flavin-containing] A (MAOA, Homo sapiens, UniProt P21397); enzyme activity, inhibitor; 50 µM, human, with: kynuramine substrate): 47%
CC(C)OC(=O)[C@H](C)NP(=S)(Oc1ccc(CCN2CCOCC2)cc1)c1ccccc1 (some centres unmarked) — degradation rate constant (Lysosomal protective protein (CTSA, Homo sapiens, UniProt P10619); substrate, LC-MS/MS; 5 µM, pH 7.4, 37 °C): 0.93 h⁻¹
NC[C@H](NC(=O)c1ccc(C#Cc2ccccc2)cc1)C(=O)NO — entropy change (ΔS) (UDP-3-O-acyl-N-acetylglucosamine deacetylase (Pseudomonas aeruginosa, UniProt P47205, C40S); isothermal titration calorimetry; concentration not given, 298 K, untagged protein, averaged): 0.0307 kcal/mol/K
Nc1ncc(-c2nc(N3CCOCC3)nc(N3CCOCC3)n2)c(C(F)F)n1 — remaining binding (Cyclin-dependent kinase 19 (CDK19, Homo sapiens, UniProt Q9BWU1); KINOMEscan; 10 µM; baseline: control): 69%
O=C1CC(C(=O)O)NC(=O)N1 (centres unmarked) — kred (Dihydroorotate dehydrogenase A (fumarate) (pyrDA, Lactococcus lactis subsp. cremoris, UniProt A2RJT9, L71F/V133T); flavin reduction, stopped-flow; Lactococcus lactis; pH 8.5, 4 °C): 0.001 ± 0.0001 s⁻¹
O=P(O)(O)OC[C@H]1C[C@@](O)(CO)[C@@H](O)[C@H](O)[C@@H]1O — apparent Vmax (2-epi-valiolone synthase (Actinosynnema mirum, UniProt C6WFL3); phosphate release; 100 µM): 1.8 ± 0.2 µM/min
Cc1ccc(OP(=O)(Oc2ccc(C)cc2)Oc2ccc(C)cc2)cc1 — enzyme activity (Acylamino-acid-releasing enzyme (Apeh, Mus musculus, UniProt Q8R146); mouse; dose not given): decreased
CC[C@H](C)[C@H](NC(=O)[C@@H](NC(=O)[C@H](CC(C)C)NC(=O)[C@H](CC(N)=O)NC(=O)[C@H](CC(=O)O)NC(=O)[C@H](CCC(=O)O)NC(=O)[C@@H](NC(=O)[C@@H](N)CCCNC(=N)N)[C@@H](C)CC)C(C)C)C(=O)N[C@H](C(=O)N[C@@H](CCCNC(=N)N)C(=O)O)[C@@H](C)CC — koff (Epithelial sodium channel subunit gamma (Homo sapiens, UniProt P51170); binding, bio-layer interferometry): 0.0203 s⁻¹
CC[C@@H](C)[C@@H](NC(=O)[C@@H](Cc1ccc(O)cc1)NC(=O)[C@H]1CCCN1C(=O)[C@@H](CCCNC(=N)N)NC(=O)[C@H](N)Cc1c[nH]cn1)C(=O)N[C@H](C)C(=O)N[C@H](Cc1c[nH]cn1)C(=O)N[C@H](CCCNC(=N)N)C(=O)N[C@H](CCCCNC(=O)c1cccc(S(=O)(=O)F)c1)C(=O)N[C@H](Cc1ccc(O)cc1)C(=O)N[C@H](CO)C(=O)N[C@H](Cc1ccccc1)C(N)=O — surface TFRC expression (Transferrin receptor protein 1 (Tfrc, Mus musculus, UniProt Q62351); flow cytometry; RAW264.7; 48 h, pH 7.4, unit not given; baseline: 0 h): 0.943
C/C=C(/C)C(=O)O[C@H]1C(C)=C2[C@H]([C@@H]1OC(=O)CCCCCCC)[C@@](C)(OC(C)=O)C[C@H](OC(=O)CCC)[C@@]1(O)[C@H]2OC(=O)[C@@]1(C)O — FLuc/RLuc ratio (Protein transport protein Sec61 subunit alpha isoform 1 (Homo sapiens, UniProt P61619); reporter gene, inhibitor, dual luciferase; HEK293 with SP-CD4-FLuc reporter; concentration not given): 6.75 and 5.01 and 4.17 and 6.11
COc1ccc(N2C(=O)N(c3c(C)cccc3Cl)Cc3cnc(Nc4ccc(C5CCN(C)CC5)cc4OC)nc32)nc1 — inhibition (Dual specificity protein kinase TTK (TTK, Homo sapiens, UniProt P33981); kinase activity; 0.5 µM): 19%
O=C(c1ccc(Cl)cc1)N1CCN2C(=O)N(OC(=O)N3CCOc4ccccc43)C(=O)C2C1 (centres unmarked) — median ratio (Probable serine carboxypeptidase CPVL (CPVL, Homo sapiens, UniProt Q9H3G5); enzyme activity, inhibitor, MS-based ABPP; SW-620 in situ; 10 µM, 2 h, 37 °C; baseline: compound over DMSO, lower = stronger inhibition): 1.09
O=C(O)Cc1c[nH]c2ccccc12 — binding (Germin-like protein subfamily 3 member 1 (GLP1, Arabidopsis thaliana, UniProt P94040, H100A/H102A); microscale thermophoresis; Arabidopsis protoplast extract; concentration not given, Flag-tagged mutant): no binding
COc1cc2nccc(Oc3ccc(NC(=O)c4cc5c(n(-c6ccccc6)c4=O)CCCC5=O)nc3)c2cc1OC — selectivity ratio (Platelet-derived growth factor receptor alpha (PDGFRA, Homo sapiens, UniProt P16234); cell viability, CellTiter-Glo; Ba/F3 expressing recombinant kinase; baseline: PDGFRA IC50 over AXL IC50): 41
CCCCCCCCCC[N+](C)(C)C.[Br-] — k-1 (Sodium channel protein type 4 alpha, BTX-activated (Oryctolagus cuniculus, UniProt G1SLL9); concentration not given): 75 s⁻¹
[2H]c1c([2H])c([C@]2([2H])CCCN2C(=O)C(C)(C)Oc2ccc3cn[nH]c3c2)c([2H])c([2H])c1C([2H])([2H])[2H] — remaining binding (Ribosomal protein S6 kinase alpha-3, N-terminal kinase domain (RPS6KA3, Homo sapiens, UniProt P51812); KINOMEscan; 1 µM; baseline: DMSO control): 79%
Nc1ncnc2c1ncn2[C@@H]1O[C@H](COP(=O)(O)OP(=O)(O)NP(=O)(O)O)[C@@H](O)[C@H]1O — ΔS (Cell cycle histidine kinase CckA, G318A; cytoplasmic region (Caulobacter vibrioides, UniProt Q9X688, G318A); ITC; without c-di-GMP): 4.01 cal/mol/K
CN1CCN(c2cc(-c3ccncc3)c(-c3ccc4ccccc4c3)nn2)CC1 — activation (Beta-3 adrenergic receptor (ADRB3, Homo sapiens, UniProt P13945); agonist, FLIPR; 12.5 µM): -0.6%
Cc1nn(C)cc1-c1nc2c(N3CCN(Cc4ccc(Cl)cc4)CC3)c(Cl)cnc2[nH]1 — remaining binding (Phosphatidylinositol 4,5-bisphosphate 3-kinase catalytic subunit alpha isoform (PIK3CA, Homo sapiens, UniProt P42336, E542K); KINOMEscan; 1 µM; baseline: DMSO control): 94%
C[C@]12CC[C@H]3[C@@H](CCC4=CC(=O)CC[C@@]43C)[C@@H]1CC[C@@H]2C(=O)CO — 11β-hydroxylation product formation rate (Cytochrome P450 11B2, mitochondrial (CYP11B2, Homo sapiens, UniProt P19099, A320V); substrate; 100 µM, 37 °C, phospholipid vesicles): 38.6 ± 5.6 min⁻¹
O=[N+]([O-])c1ccc(OP(=O)(OC2CCCCC2)OC2CCCCC2)cc1 — Km (had (Sphingobium sp. TCM1, UniProt A0A077JBW9)): 110 ± 30 µM
Nc1nc2c(ncn2[C@@H]2O[C@H](COP(=O)(O)OP(=O)(O)OP(=O)(O)O)[C@@H](O)[C@H]2O)c(=O)[nH]1 — fluorescence ratio F+/F- (matB (Rhodopseudomonas palustris, UniProt Q6ND88, C106A/K488A/Q457C/R286C); binding, intrinsic fluorescence; 250 µM, 1 µM matB, 10 mM MgCl2): 1.03
Cc1ncc(C)n2nc(/C=C/c3nc(N4CCCC4)cc(N4CCOCC4)n3)nc12 — inhibition (human androgen receptor; radioligand binding; 10 µM): 5%
C[C@H]1CN(c2n[nH]c3nc(N[C@H]4CC[C@H](NS(=O)(=O)CCC(F)(F)F)CC4)ncc23)CCO1 — relative abundance (Serine/threonine-protein kinase WNK1 (WNK1, Homo sapiens, UniProt Q9H4A3); inhibitor, Kinobeads competition profiling; 0.16 µM; baseline: vehicle): 1.19
O=C1c2ccccc2C(=O)C1C(=O)C(c1ccccc1)c1ccccc1 — activity (Nuclear receptor subfamily 1 group I member 3 (Homo sapiens, UniProt Q14994); cells; concentration not given): inactive
COc1cc(N)c(Cl)cc1C(=O)NC1CN2CCC1CC2 (centres unmarked) — log2 fold change (G-protein coupled receptor 87 (GPR87, Homo sapiens, UniProt Q9BY21); β-arrestin recruitment, TANGO luminescence, measured: GPR87; concentration not given; baseline: basal luminescence): -0.024
CC(CCn1ccc(-c2ccc(-c3cn(Cc4ccc(F)cc4)nn3)cc2)cc1=O)(C(=O)NO)S(C)(=O)=O (centres unmarked) — residence time (UDP-3-O-acyl-N-acetylglucosamine deacetylase (Pseudomonas aeruginosa, UniProt P47205); fluorescence; 37 °C): 68.2 ± 9.6 min
Nc1ccc2c3c(cccc13)C(=O)NC2=O — Hill coefficient (Metallo-beta-lactamase type 2 (blaNDM-1, Klebsiella pneumoniae, UniProt C7C422); inhibitor): 0.9
CC[C@H](C)[C@H](NC(=O)CNC(=O)[C@@H](N)CCCCN)C(=O)N[C@@H](CC(C)C)C(=O)N[C@@H](CCCCN)C(=O)N[C@@H](CC(N)=O)C(=O)N[C@@H](CCCNC(=N)N)C(=O)N[C@@H](C)C(=O)N[C@@H](CCCNC(=N)N)C(=O)N[C@@H](CCCNC(=N)N)C(=O)N[C@@H](CCC(=O)O)C(=O)N[C@@H](CCCNC(=N)N)C(=O)N1CCC[C@H]1C(=O)NCC(=O)N[C@@H](CCCCN)C(=O)N[C@@H](CCCNC(=N)N)C(=O)N[C@@H](CCCCN)C(=O)N[C@@H](CC(N)=O)C(=O)N[C@H](C(=O)N[C@@H](Cc1c[nH]cn1)C(=O)N[C@@H](Cc1c[nH]c2ccccc12)C(=O)N1CCC[C@H]1C(=O)N[C@@H](CCC(=O)O)C(=O)N[C@@H](CCC(=O)O)C(=O)NCC(=O)N[C@@H](CCCCN)C(=O)N[C@@H](CC(C)C)C(=O)N[C@@H](CCCNC(=N)N)C(=O)N[C@@H](CCC(=O)O)C(=O)N[C@@H](Cc1ccc(O)cc1)C(=O)N[C@@H](Cc1ccccc1)C(=O)N[C@@H](Cc1ccc(O)cc1)C(=O)N[C@@H](Cc1ccccc1)C(=O)N[C@@H](CCC(=O)O)C(=O)N[C@@H](CC(C)C)C(=O)N[C@@H](CC(=O)O)C(=O)N[C@@H](CCC(=O)O)C(=O)N[C@@H](C)C(=O)N[C@@H](CCC(=O)O)C(=O)N[C@@H](CCCNC(=N)N)C(=O)N[C@H](C(=O)N[C@@H](CC(N)=O)C(=O)N[C@H](C(=O)O)C(C)C)C(C)C)C(C)C — enthalpy change ΔH (Serine/threonine-protein phosphatase PP1-alpha catalytic subunit (PPP1CA, Homo sapiens, UniProt P62136); binding, isothermal titration calorimetry; concentration not given, 25 °C, PP1α residues 7-330): -35.3 ± 0.1 kcal/mol
CCCN(CCOc1c(Cl)cc(Cl)cc1Cl)C(=O)n1ccnc1 — fold change (F-box only protein 22 (Homo sapiens, UniProt Q8NEZ5); binding, affinity selection mass spectrometry; 100 nM, pooled screen; baseline: other proteins): 22
O=C(Nc1cnccc1Cl)N1CCN(Cc2ccc3c(c2)OC(F)(F)O3)CC1 — inhibition (IP3 receptor, rat; binding; 50 µM, with: [3H]IP3): -7%
OB(O)CSc1nc2ccccc2n1Cc1ccc(C(F)(F)F)cc1C(F)(F)F — number of binding sites (Regulatory protein BlaR1, sensor domain (blaR1, Staphylococcus aureus, UniProt P18357); tryptophan fluorescence quenching; concentration not given): 1.2
COc1cc(Nc2ncc(F)c(Nc3ccc4c(n3)NC(=O)C(C)(C)O4)n2)cc(OC)c1OC — inhibition (Bone morphogenetic protein receptor type-1B (BMPR1B, Homo sapiens, UniProt O00238); KINOMEscan; 10 µM): 74%
CN(C(=O)n1cnc(-c2ccc[n+]([O-])c2)c1)C1CCCCC1 — inhibition (ryanodine receptor RyR3, rat; binding; 50 µM, with: [3H]ryanodine): 9%

Excerpt of the above:
O=P(O)(O)OC[C@H]1C[C@@](O)(CO)[C@@H](O)[C@H](O)[C@@H]1O — apparent Vmax (2-epi-valiolone synthase (Actinosynnema mirum, UniProt C6WFL3); phosphate release; 100 µM): 1.8 ± 0.2 µM/min
Cc1ccc(OP(=O)(Oc2ccc(C)cc2)Oc2ccc(C)cc2)cc1 — enzyme activity (Acylamino-acid-releasing enzyme (Apeh, Mus musculus, UniProt Q8R146); mouse; dose not given): decreased
